Published values of several laboratories.
Lines come from different studies, so protocols differ.
Partner: itself
B1: FCY1 homodimer M100W (yeast, UniProt Q12178); sequence looked up; chain MVTGGMASKWDQKGMDIAYEEAALGYKEGGVPIGGCLINNKDGSVLGRGHNMRFQKGSATLHGEISTLENCGRLEGKVYKDTTLYTTLSPCDMCTGAIIWYGIPRCVVGENVNFKSKGEKYLQTRGHEVVVVDDERCKKIMKQFIDERPQDWFEDIGE
B2: SPOP E50K (Homo sapiens, UniProt O43791); sequence looked up; chain MSRVPSPPPPAEMSSGPVAESWCYTQIKVVKFSYMWTINNFSFCREEMGKVIKSSTFSSGANDKLKWCLRVNPKGLDEESKDYLSLYLLLVSCPKSEVRAKFKFSILNAKGEETKAMESQRAYRFVQGKDWGFKKFIRRDFLLDEANGLLPDDKLTLFCEVSVVQDSVNISGQNTMNMVKVPECRLADELGGLWENSRFTDCCLCVAGQEFQAHKAILAARSPVFSAMFEHEMEESKKNRVEINDVEPEVFKEMMCFIYTGKAPNLDKMADDLLAAADKYALERLKVMCEDALCSNLSVENAAEILILADLHSADQLKTQAVDFINYHASDVLETSGWKSMVVSHPHLVAEAYRSLASAQCPFLGPPRKRLKQS
B3: LPL mature V224C (Homo sapiens, UniProt P06858); Alexa Fluor 555/647 labels; sequence looked up; chain ADQRRDFIDIESKFALRTPEDTAEDTCHLIPGVAESVATCHFNHSSKTFMVIHGWTVTGMYESWVPKLVAALYKREPDSNVIVVDWLSRAQEHYPVSAGYTKLVGQDVARFINWMEEEFNYPLDNVHLLGYSLGAHAAGIAGSLTNKKVNRITGLDPAGPNFEYAEAPSRLSPDDADFVDVLHTFTRGSPGRSIGIQKPVGHVDIYPNGGTFQPGCNIGEAIRCIAERGLGDVDQLVKCSHERSIHLFIDSLLNEENPSKAYRCSSKEAFEKGLCLSCRKNRCNNLGYEINKVRAKRSSKMYLKTRSQMPYKVFHYQVKIHFSGTESETHTNQAFEISLYGTVAESENIPFTLPEVSTNKTYSFLIYTEVDIGELLMLKLKWKSDSYFSWSDWWSSPGFAIQKIRVKAGETQKKVIFCSREKVSHLQKGKAPAVFVKCHDKSLNKKSG
B4: RAD52 1-418 K102A/K133A/K169A/R173A (Homo sapiens, UniProt P43351); chain MSGTEEAILGGRDSHPAAGGGSVLCFGQCQYTAEEYQAIQKALRQRLGPEYISSRMAGGGQKVCYIEGHRVINLANEMFGYNGWAHSITQQNVDFVDLNNGAFYVGVCAFVRVQLKDGSYHEDVGYGVSEGLASKALSLEKARKEAVTDGLKRALRSFGNALGNCILDADYLASLNKLPRQLPLEVDLTKAKRQDLEPSVEEARYNSCRPNMALGHPQLQQVTSPSRPSHAVIPADQDCSSRSLSSSAVESEATHQRKLRQKQLQQQFRERMEKQQVRVSTPSAEKSEAAPPAPPVTHSTPVTVSEPLLEKDFLAGVTQELIKTLEDNSEKWAVTPDAGDGVVKPSSRADPAQTSDTLALNNQMVTQNRTPHSVCHQKPQAKSGSWDLQTYSADQRTTGNWESHRKSQDMKKRKYDPS
B5: Gm4951 N190A/E191A (Mus musculus, UniProt Q3UED7); sequence looked up; chain MGQLFSSRRSEDQDLSSSFIEYLKECEKGINIIPHEIITSIEINMKKGNIQEVNSTVRDMLREIDNTPLNVALTGETGSGKSSFINTLRGIGHEEGGAAHTGVTDKTKERHPYEHPKMPNVVFWDLPGTGSEDFQPKTYLEKMKFYEYDFFIIISATRFKKNDIDLAKAIGIMKKEFYFVRTQVDSDLRAAEDFKPQTFDREKVLQDIRLNCVNTFRENGIAEPPIFLISNKNVCHYDFPVLMDKLISDLPVFKRQNFMFSLPNITDSVIEKKRNFLRWKTWLEGFADGLLSFFLESDLETLEKSMKFYRTVFGVDDASLQRLARAWEIDQVDQVRAMIKSPAVFTPTDEETIQERLSRYNQEFCLANGYLLPKNHCREILYLKLYFLDMVTEDAKTLLKEICLRN
B6: TOP2 C180A/C731A/S16C (Saccharomyces cerevisiae, UniProt P06786); AlexaFluor 488/546 labels; sequence looked up; chain MSTEPVSASDKYQKICQLEHILKRPDTYIGSVETQEQLQWIYDEETDCMIEKNVTIVPGLFKIFDEILVNAADNKVRDPSMKRIDVNIHAEEHTIEVKNDGKGIPIEIHNKENIYIPEMIFGHLLTSSNYDDDEKKVTGGRNGYGAKLCNIFSTEFILETADLNVGQKYVQKWENNMSIAHPPKITSYKKGPSYTKVTFKPDLTRFGMKELDNDILGVMRRRVYDINGSVRDINVYLNGKSLKIRNFKNYVELYLKSLEKKRQLDNGEDGAAKSDIPTILYERINNRWEVAFAVSDISFQQISFVNSIATTMGGTHVNYITDQIVKKISEILKKKKKKSVKSFQIKNNMFIFINCLIENPAFTSQTKEQLTTRVKDFGSRCEIPLEYINKIMKTDLATRMFEIADANEENALKKSDGTRKSRITNYPKLEDANKAGTKEGYKCTLVLTEGDSALSLAVAGLAVVGRDYYGCYPLRGKMLNVREASADQILKNAEIQAIKKIMGLQHRKKYEDTKSLRYGHLMIMTDQDHDGSHIKGLIINFLESSFPGLLDIQGFLLEFITPIIKVSITKPTKNTIAFYNMPDYEKWREEESHKFTWKQKYYKGLGTSLAQEVREYFSNLDRHLKIFHSLQGNDKDYIDLAFSKKKADDRKEWLRQYEPGTVLDPTLKEIPISDFINKELILFSLADNIRSIPNVLDGFKPGQRKVLYGCFKKNLKSELKVAQLAPYVSEATAYHHGEQSLAQTIIGLAQNFVGSNNIYLLLPNGAFGTRATGGKDAAAARYIYTELNKLTRKIFHPADDPLYKYIQEDEKTVEPEWYLPILPMILVNGAEGIGTGWSTYIPPFNPLEIIKNIRHLMNDEELEQMHPWFRGWTGTIEEIEPLRYRMYGRIEQIGDNVLEITELPARTWTSTIKEYLLLGLSGNDKIKPWIKDMEEQHDDNIKFIITLSPEEMAKTRKIGFYERFKLISPISLMNMVAFDPHGKIKKYNSVNEILSEFYYVRLEYYQKRKDHMSERLQWEVEKYSFQVKFIKMIIEKELTVTNKPRNAIIQELENLGFPRFNKEGKPYYGSPNDEIAEQINDVKGATSDEEDEESSHEDTENVINGPEELYGTYEYLLGMRIWSLTKERYQKLLKQKQEKETELENLLKLSAKDIWNTDLKAFEVGYQEFLQRDAEARGGNVPNKGSKTKGKGKRKLVDDEDYDPSKKNKKSTARKGKKIKLEDKNFERILLEQKLVTKSKAPTKIKKEKTPSVSETKTEEEENAPSSTSSSSIFDIKKEDKDEGELSKISNKFKKISTIFDKMGSTSATSKENTPEQDDVATKKNQTTAKKTAVKPKLAKKPVRKQQKVVELSGESDLEILDSYTDREDSNKDEDDAIPQRSRRQRSSRAASVPKKSYVETLELSDDSFIEDDEEENQGSDVSFNEED
B7: tsaC1 1-252 (Comamonas testosteroni, UniProt P94681); chain MNLNKQVAIVTGGASGFGAAIARRLSQAGAAVLVADLNAEGAQRMATELNAAGGRALGMACDVSKEADYRAVVDAAIAQLGGLHIVVNNAGTTHRNKPALAVTEDEFDRVYRVNLKSVYWSAQCALPHFAQQGHGVMVNVASTTGVRPGPGLTWYSGSKAAMINLTKGLALEFARSGVRINAVNPMIGETPMMADFMGMEDTPANRERFLSRIPLGRFTRPDDVASAVAFLASDDASFLTGVCLDVDGGRNI
B8: TNKS 1026-1092 (Homo sapiens, UniProt O95271); sequence looked up; chain GLDMNISQFLKSLGLEHLRDIFETEQITLDVLADMGHEELKEIGINAYGHRHKLIKGVERLLGGQQG
B9: dlg1 1-97 L14G (Drosophila melanogaster, UniProt P31007); sequence looked up; chain MPVKKQEAHRALEGLEDYHARLSEPQDRALRIAIERVIRIFKSRLFQALLDIQEFYELTLLDDSKSIQQKTAETLQIATKWEKDGQAVKIADFIKSS
B10: SPOP D140N (Homo sapiens, UniProt O43791); sequence looked up; chain MSRVPSPPPPAEMSSGPVAESWCYTQIKVVKFSYMWTINNFSFCREEMGEVIKSSTFSSGANDKLKWCLRVNPKGLDEESKDYLSLYLLLVSCPKSEVRAKFKFSILNAKGEETKAMESQRAYRFVQGKDWGFKKFIRRNFLLDEANGLLPDDKLTLFCEVSVVQDSVNISGQNTMNMVKVPECRLADELGGLWENSRFTDCCLCVAGQEFQAHKAILAARSPVFSAMFEHEMEESKKNRVEINDVEPEVFKEMMCFIYTGKAPNLDKMADDLLAAADKYALERLKVMCEDALCSNLSVENAAEILILADLHSADQLKTQAVDFINYHASDVLETSGWKSMVVSHPHLVAEAYRSLASAQCPFLGPPRKRLKQS
B11: cas3 1-1076 (Pseudomonas aeruginosa, UniProt Q02ML8); chain MNILLVSQCEKRALSETRRILDQFAERRGERTWQTPITQAGLDTLRRLLKKSARRNTAVACHWIRGRDHSELLWIVGDASRFNAQGAVPTNRTCRDILRKEDENDWHSAEDIRLLTVMAALFHDIGKASQAFQAKLRNRGKPMADAYRHEWVSLRLFEAFVGPGSSDEDWLRRLADKRETGDAWLSQLARDDRQSAPPGPFQKSRLPPLAQAVGWLIVSHHRLPNGDHRGSASLARLPAPIQSQWCGARDADAKEKAACWQFPHGLPFASAHWRARTALCAQSMLERPGLLARGPALLHDSYVMHVSRLILMLADHHYSSLPADSRLGDPNFPLHANTDRDSGKLKQRLDEHLLGVALHSRKLAGTLPRLERQLPRLARHKGFTRRVEQPRFRWQDKAYDCAMACREQAMEHGFFGLNLASTGCGKTLANGRILYALADPQRGARFSIALGLRSLTLQTGQAYRERLGLGDDDLAILVGGSAARELFEKQQERLERSGSESAQELLAENSHVHFAGTLEDGPLREWLGRNSAGNRLLQAPILACTIDHLMPASESLRGGHQIAPLLRLMTSDLVLDEVDDFDIDDLPALSRLVHWAGLFGSRVLLSSATLPPALVQGLFEAYRSGREIFQRHRGAPGRATEIRCAWFDEFSSQSSAHGAVTSFSEAHATFVAQRLAKLEQLPPRRQAQLCTVHAAGEARPALCRELAGQMNTWMADLHRCHHTEHQGRRISFGLLRLANIEPLIELAQAILAQGAPEGLHVHLCVYHSRHPLLVRSAIERQLDELLKRSDDDAAALFARPTLAKALQASTERDHLFVVLASPVAEVGRDHDYDWAIVEPSSMRSIIQLAGRIRRHRSGFSGEANLYLLSRNIRSLEGQNPAFQRPGFETPDFPLDSHDLHDLLDPALLARIDASPRIVEPFPLFPRSRLVDLEHRRLRALMLADDPPSSLLGVPLWWQTPASLSGALQTSQPFRAGAKERCYALLPDEDDEERLHFSRYEEGTWSNQDNLLRNLDLTYGPRIQTWGTVNYREELVAMAGREDLDLRQCAMRYGEVRLRENTQGWSYHPYLGFKKYN
B12: NINJ1 (Homo sapiens, UniProt Q92982); sequence looked up; chain MDSGTEEYELNGGLPPGTPGSPDASPARWGWRHGPINVNHYASKKSAAESMLDIALLMANASQLKAVVEQGPSFAFYVPLVVLISISLVLQIGVGVLLIFLVKYDLNNPAKHAKLDFLNNLATGLVFIIVVVNIFITAFGVQKPLMDMAPQQ
B13: racE (Dictyostelium discoideum, UniProt Q23862); pS192; sequence looked up; chain MSEDQGSGATRVKLVVVGDGAVGKTCLLICYAQNDFPVDYVPTVFENYTATRKRGNEDIKVHLWDTAGQEEYDRLRPLSYPGADVVLLCFSTISQSSYEAIRDKWAPEVNHYIPDVPSILVGTKIDLREQQHPDPNSGKFEPITADMGISMQKQIKAKKYLEVSAKTRQGLEEVFSAAIEIVLESRGMDKKSQDGSSSASGVPSGDKPTKGKAGKKKSGCIIL
UniProt Q46899, sequence (whole entry, looked up): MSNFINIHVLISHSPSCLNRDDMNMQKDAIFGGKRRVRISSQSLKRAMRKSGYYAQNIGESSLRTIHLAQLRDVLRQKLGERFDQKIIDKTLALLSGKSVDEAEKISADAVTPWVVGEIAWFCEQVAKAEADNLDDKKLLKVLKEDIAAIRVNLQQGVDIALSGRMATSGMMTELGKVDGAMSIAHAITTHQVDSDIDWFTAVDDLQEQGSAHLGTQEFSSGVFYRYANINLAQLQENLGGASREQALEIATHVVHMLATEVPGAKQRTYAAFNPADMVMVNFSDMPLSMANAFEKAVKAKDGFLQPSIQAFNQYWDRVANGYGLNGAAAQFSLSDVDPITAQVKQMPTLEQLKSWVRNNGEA

`B1 (FCY1 homodimer M100W)` — result for binding: “binds” (crystal structure).
For `B2 (SPOP E50K)`, binding read “binds” (negative-stain TEM).
`B3 (LPL mature V224C)`: binding “binds” (FRET or BRET).
For `B4`, binding read “binds” (mass photometry).
`casC (Escherichia coli, UniProt Q46899)` — result for binding: “binds” (SEC).
`B5 (Gm4951 N190A/E191A)` — result for binding: “binds” (mass photometry).
`B6 (TOP2 C180A/C731A/S16C)`: binding “binds” (FRET or BRET; with: ADP, ATP, ADPNP).
`B7 (tsaC1 1-252)` — result for binding: “binds” (SEC).
Under binding, `PYNNQGQQQNMESSG (TAF15 82-96 (Homo sapiens, UniProt Q92804); N-acetyl/C-amide; sequence looked up)` is recorded as “binds” (negative-stain TEM; peptide; peptide).
For `B8 (TNKS 1026-1092)`, binding read “binds” (crystal structure).
`B9 (dlg1 1-97 L14G)`: binding “binds” (SEC).
For `B10 (SPOP D140N)`, binding read “binds” (negative-stain TEM).
Under binding, `B11 (cas3 1-1076)` is recorded as “binds” (cryo-EM).
Under binding, `B12 (NINJ1)` is recorded as “binds” (cryo-EM).
For `B13 (racE)`, binding read “binds” (SEC).

Repeated from above:
`casC (Escherichia coli, UniProt Q46899)` — result for binding: “binds” (SEC).
`B5 (Gm4951 N190A/E191A)` — result for binding: “binds” (mass photometry).
